Published values from different studies.
Parts stem from different laboratories: compare values within a part only. Changes are numbered by the printed parent chain.

Series 1
Target: ABI1, truncated, D143A, DHFR fusion (Arabidopsis thaliana)
Method: DHFR PCA, deep sequencing
Sample: yeast
Notes: methotrexate growth selection, single substitutions
Together with: (+)-ABA 17 µM
Relative to: wild-type fitted maximum
Direction: higher = stronger binding
Measurement: relative binding score
Starting sequence: PYL1, truncated, DHFR fusion (Arabidopsis thaliana); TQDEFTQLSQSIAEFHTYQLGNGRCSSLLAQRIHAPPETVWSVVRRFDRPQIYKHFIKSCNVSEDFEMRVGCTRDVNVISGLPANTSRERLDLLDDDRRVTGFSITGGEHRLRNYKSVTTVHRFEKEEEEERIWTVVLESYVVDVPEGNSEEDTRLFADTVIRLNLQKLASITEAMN
Q2L: 87.5%
K116V: 28.6%
N114Q: 14.5%
V145L: 55.2%
R74V: -8.72%
F66I: 56.3%
R24N: 65.7%
K54P: -6.21%
L20C: 87.6%
E64T: 83.8%
E174S: 61.5%
E67M: 72.5%
L112H: -12.2%
C72D: 83%
N77Y: 88.6%
T120M: 0.851%
I57T: 15.4%
E147S: 75.7%
R111C: 23.8%

Series 2
Target: RNA binding protein fox-1 homolog 2, RRM domain, GST-SBP tag (RBFOX2, Homo sapiens, UniProt O43251-10, residues 100-194)
Method: RNA Bind-n-Seq
Molecule type: RNA
Sample: in vitro
Concentration: 365 nM
Notes: natural RNA segment, single round, ends assumed
Relative to: no-protein control
Direction: higher = stronger binding
Measurement: RBNS enrichment (R)
Shared flanks, not repeated: GGGAGUUCUACAGUCCGACGAUC … UGGAAUUCUCGGGUGCCAA
Residues (chain): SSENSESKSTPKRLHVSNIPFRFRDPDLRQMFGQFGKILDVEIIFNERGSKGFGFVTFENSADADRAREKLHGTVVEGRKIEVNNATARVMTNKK
GGUCGAAAGUUAGUAGGAUAUGCCUGCUCUUUGGCCUGAUGACCAAUUUUAACUUAGAGCUUUUUUUUUUUAAUUUUGUCUGCCCCAAGUUUUGUGAAAUUUUUCAUAUU: 1.26
AAAUGAUAGGCCCUACCUUUGAAGUUUCUAAGACUUAUUAUGGGAUGUAAAUCUGUUUUUUAAAAACACUUUUUAGGGGCUUGAGAGCUGCCACCUGGCAUUUAGUUUAG: 0.44
AAAGUCCUGUCAGAUUGUGAAGAAAUGUUCCAGGAUACACUUGGAUUAGUUAUGCAGUAUUUCUUAUCAAUGUCUAGCCCUUGUGUAUUGUUCUGAAAACUAAAGUUUAA: 0.617
ACUCGGAAUAAAGGAUGACUUUGGCGGAUGUCGCCCCUGCAAGGAGGUGGCUGAAAGUGGUGUCCAGAUGUCCUUCCGAGGACUCGGCGUAUCCGCCACCAGGGACAUUA: 0.206
CAACCCAGCUGUAGGCGCUUACACUGAAAUCUAAGUCUGUAUAGUGAACGCCAGCGGCGGCCGACUUCUAUCCCAAGCACUGCGCAAAAGCAGAGGAACGGAAAGGGAAA: 0.729
UAGAAGAUGGUCAAAAAAAGUCCAAGUUACCAAUUUUUUAAAAUUUAUAGGCAAAGUAUCAAAUUGUCUUCUUAAUAUGAUAAACUGUGCUUUAUCAUUCUGAAAACUCA: 0.55
GUCUCCAGCGCCACACAUCCGAGGUGUACUUUGUGUGCAGAAUGUGUCUUCCUUCUGGCCUGUAAUCCCCUUCCCAUGAAAGAUUAAUGAGGGAAAUCUUUAUAUUCUGU: 1.33
UGGGGCCUCCACUGCUUUUCUAUGGGAGACACUCUUAAUUUAACAGAUGAGAAUAUUUUGAAACUCUGUUCUGACUCUGUACUCAUUUUUUUAUUUAGCUCUUCGGUAAG: 0.608
UUUCUCAUCAAUUCUCUAUCAUGUUGAAGUCAAAUUUGGAUUUUCCACCAAAUUCUGAAUUUGUAGACAUACUUGUACGCUCACUUGCCCCAGAUGCCUCCUCUGUCCUC: 0.483
CAUGUGUCAGAUCUGCAUGCAUUGCUUGCAUUUUUCUGGUAUCUGAAUGUUGGUUCCUUGUUCCAGGAAUUCAACAUUAAUUUCCAAAAGUAUCAUGGGACUUGUGACAA: 0.878
ACCAAUGGGUCCCCUAUAUCUCUCUAGAGGAACGUGAGACCCACUCCAAACAUCUAAAGCAACUGUCGAGUUGCUGUCCCCUAAAAAAAGUAAAUAAAAUACAUAUUUGA: 0.554
GGAGAGCAAAAAGUAUGAAUGGGAUGGAGCUAAGAAGUCUGAAUACUUAAUGAAAUGGACUUUUUGGAAAGAAAUCAGAUGAAGGCAUAAAAUUUAGUUCUUAGCUCUUG: 0.964

Series 3
Target: CCND1, cyclin fold, Cln2 fusion (human)
Method: yeast growth competition, sequencing
Sample: yeast
Notes: weak parent motif
Relative to: not given
Direction: higher = stronger binding
Measurement: normalised enrichment score
Starting sequence: WEE1 docking peptide (human); HKTFRKLRLFDTP; partner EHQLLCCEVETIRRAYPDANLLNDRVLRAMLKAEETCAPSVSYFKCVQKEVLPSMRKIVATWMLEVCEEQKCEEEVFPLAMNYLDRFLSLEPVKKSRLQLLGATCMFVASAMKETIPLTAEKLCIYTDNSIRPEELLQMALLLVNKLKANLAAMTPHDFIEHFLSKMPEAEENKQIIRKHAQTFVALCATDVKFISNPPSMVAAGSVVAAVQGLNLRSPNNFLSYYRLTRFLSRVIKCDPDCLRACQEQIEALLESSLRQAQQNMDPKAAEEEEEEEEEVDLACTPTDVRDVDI
L9E: 0.321
P13D: 0.385
P13C: 0.387
F4L: 0.195
T12L: -0.128
T3Y: -1.31
R5N: -4.96
R5E: 1.18
K6Q: 0.212

Single results of other studies
PhoQ, residues 284 288 289 292 302 303 ASHLAV  fold induction (PhoP, residues 12 14 15 18 19 TPWLV (Escherichia coli, UniProt P23836); Sort-seq, item: YFP reporter; E. coli; PhoQ-PhoP variant library, together with: 10 µM Mg2+; relative to: high Mg2+ state, higher = stronger signaling): 1.43

Repeated from above (series 2):
UUUCUCAUCAAUUCUCUAUCAUGUUGAAGUCAAAUUUGGAUUUUCCACCAAAUUCUGAAUUUGUAGACAUACUUGUACGCUCACUUGCCCCAGAUGCCUCCUCUGUCCUC: 0.483
CAUGUGUCAGAUCUGCAUGCAUUGCUUGCAUUUUUCUGGUAUCUGAAUGUUGGUUCCUUGUUCCAGGAAUUCAACAUUAAUUUCCAAAAGUAUCAUGGGACUUGUGACAA: 0.878
ACCAAUGGGUCCCCUAUAUCUCUCUAGAGGAACGUGAGACCCACUCCAAACAUCUAAAGCAACUGUCGAGUUGCUGUCCCCUAAAAAAAGUAAAUAAAAUACAUAUUUGA: 0.554
